Results gathered from unrelated publications.
Compare with care: the assays were run in different laboratories. “And” joins repeats or separate records; there may be more than shown. ± gives the spread as reported.
Chain of UniProt O88704 (whole entry, looked up): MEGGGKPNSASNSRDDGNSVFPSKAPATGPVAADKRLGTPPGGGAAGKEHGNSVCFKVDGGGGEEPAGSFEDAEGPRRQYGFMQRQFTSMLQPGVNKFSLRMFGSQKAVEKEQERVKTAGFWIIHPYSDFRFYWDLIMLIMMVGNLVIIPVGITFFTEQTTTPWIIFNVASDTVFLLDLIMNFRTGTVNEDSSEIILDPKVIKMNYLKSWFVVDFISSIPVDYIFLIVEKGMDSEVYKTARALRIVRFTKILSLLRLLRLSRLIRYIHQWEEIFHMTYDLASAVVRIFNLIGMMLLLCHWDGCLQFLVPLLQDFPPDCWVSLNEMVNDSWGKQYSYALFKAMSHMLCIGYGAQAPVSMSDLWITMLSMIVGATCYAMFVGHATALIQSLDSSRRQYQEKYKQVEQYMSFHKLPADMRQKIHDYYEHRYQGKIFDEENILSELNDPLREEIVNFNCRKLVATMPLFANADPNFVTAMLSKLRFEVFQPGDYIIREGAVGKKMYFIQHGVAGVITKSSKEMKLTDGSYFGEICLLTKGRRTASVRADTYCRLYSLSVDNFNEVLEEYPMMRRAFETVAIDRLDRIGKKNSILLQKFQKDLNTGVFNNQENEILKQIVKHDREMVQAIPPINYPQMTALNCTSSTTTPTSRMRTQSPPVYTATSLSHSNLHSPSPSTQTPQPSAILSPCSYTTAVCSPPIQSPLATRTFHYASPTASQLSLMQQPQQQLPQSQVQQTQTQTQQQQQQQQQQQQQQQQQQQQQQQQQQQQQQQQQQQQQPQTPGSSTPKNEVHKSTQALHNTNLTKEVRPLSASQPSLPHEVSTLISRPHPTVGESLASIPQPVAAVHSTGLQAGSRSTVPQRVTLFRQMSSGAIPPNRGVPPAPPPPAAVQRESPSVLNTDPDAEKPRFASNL
Chain of UniProt Q388M1 (whole entry, looked up): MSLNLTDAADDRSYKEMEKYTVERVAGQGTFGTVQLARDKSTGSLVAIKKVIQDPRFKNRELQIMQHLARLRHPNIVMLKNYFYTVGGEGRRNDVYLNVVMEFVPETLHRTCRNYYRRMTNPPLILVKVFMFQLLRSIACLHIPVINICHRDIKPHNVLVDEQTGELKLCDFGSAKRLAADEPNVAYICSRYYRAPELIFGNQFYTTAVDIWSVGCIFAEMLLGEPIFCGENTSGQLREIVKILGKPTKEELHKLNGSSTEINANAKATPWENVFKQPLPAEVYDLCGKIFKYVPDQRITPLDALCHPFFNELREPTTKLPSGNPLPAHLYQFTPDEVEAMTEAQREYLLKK
Chain of UniProt Q2PAY2 (whole entry, looked up): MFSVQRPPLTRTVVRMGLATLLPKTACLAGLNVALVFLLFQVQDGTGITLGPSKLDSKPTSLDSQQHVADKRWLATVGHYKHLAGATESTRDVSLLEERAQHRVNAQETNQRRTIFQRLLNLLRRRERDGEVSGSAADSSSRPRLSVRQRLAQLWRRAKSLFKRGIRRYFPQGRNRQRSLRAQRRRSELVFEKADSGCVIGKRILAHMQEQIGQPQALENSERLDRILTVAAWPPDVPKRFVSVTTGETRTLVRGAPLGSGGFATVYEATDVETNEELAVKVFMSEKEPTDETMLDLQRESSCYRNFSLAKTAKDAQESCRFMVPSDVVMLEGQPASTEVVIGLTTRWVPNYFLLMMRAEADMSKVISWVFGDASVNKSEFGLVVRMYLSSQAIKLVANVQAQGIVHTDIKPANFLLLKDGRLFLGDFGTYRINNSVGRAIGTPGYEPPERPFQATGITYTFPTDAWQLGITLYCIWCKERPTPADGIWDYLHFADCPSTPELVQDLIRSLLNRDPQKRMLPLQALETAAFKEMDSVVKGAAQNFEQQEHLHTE
Chain of UniProt P33527 (whole entry, looked up): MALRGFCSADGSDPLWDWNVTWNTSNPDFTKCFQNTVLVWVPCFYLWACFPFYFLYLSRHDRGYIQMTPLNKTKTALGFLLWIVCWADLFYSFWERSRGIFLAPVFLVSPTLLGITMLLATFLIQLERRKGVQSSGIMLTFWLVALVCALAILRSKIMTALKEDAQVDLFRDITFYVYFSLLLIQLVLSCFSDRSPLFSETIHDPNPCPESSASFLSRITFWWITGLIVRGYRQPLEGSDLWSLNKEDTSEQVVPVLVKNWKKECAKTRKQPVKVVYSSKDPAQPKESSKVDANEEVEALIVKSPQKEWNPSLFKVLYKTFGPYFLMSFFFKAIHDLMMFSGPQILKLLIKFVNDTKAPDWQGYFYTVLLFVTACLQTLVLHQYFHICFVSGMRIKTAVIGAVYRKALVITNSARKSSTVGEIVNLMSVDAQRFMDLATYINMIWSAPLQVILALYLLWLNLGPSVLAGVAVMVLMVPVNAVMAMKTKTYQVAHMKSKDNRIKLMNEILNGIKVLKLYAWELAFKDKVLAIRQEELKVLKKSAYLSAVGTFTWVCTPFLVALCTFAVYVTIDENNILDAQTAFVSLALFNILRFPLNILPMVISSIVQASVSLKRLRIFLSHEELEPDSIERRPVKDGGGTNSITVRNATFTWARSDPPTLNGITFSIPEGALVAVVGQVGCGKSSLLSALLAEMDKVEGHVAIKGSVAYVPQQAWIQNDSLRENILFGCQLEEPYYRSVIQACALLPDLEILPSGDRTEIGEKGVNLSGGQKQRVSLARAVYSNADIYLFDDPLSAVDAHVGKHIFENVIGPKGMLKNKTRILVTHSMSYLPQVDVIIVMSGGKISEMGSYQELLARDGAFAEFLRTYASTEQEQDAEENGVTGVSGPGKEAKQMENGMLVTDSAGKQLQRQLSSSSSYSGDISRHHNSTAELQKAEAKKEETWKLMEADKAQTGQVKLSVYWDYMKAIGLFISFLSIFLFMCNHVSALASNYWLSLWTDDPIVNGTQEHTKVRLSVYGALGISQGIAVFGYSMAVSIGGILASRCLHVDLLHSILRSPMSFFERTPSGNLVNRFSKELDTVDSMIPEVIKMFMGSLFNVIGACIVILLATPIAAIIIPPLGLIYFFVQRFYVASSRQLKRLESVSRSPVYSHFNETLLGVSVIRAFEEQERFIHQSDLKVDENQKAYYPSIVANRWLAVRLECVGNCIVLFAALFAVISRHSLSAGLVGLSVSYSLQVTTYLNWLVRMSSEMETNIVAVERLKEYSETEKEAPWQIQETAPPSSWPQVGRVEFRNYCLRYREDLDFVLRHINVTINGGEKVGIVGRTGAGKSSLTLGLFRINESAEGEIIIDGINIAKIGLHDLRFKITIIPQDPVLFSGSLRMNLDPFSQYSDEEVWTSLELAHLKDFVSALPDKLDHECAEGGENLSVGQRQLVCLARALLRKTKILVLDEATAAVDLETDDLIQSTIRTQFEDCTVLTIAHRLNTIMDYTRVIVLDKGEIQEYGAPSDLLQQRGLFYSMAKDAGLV
Chain of UniProt P39135 (whole entry, looked up): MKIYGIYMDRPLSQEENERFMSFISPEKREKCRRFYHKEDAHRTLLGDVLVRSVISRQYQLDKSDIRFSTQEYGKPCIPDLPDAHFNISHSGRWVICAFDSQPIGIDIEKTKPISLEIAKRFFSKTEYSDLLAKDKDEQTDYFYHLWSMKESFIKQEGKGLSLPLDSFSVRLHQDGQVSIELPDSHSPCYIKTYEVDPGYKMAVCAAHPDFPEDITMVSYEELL
Chain of UniProt P54292 (whole entry, looked up): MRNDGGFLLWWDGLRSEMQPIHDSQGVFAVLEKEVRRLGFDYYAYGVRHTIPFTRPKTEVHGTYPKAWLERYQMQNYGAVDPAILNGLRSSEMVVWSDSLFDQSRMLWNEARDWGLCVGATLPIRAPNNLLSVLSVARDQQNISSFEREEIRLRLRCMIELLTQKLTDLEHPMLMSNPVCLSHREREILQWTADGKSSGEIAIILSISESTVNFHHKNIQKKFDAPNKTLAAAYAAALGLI

Structure (SMILES)	tested on	assay	system	conditions	measurement	value
CC(=O)OC[C@H]1O[C@@H]([S-])[C@H](OC(C)=O)[C@@H](OC(C)=O)[C@@H]1OC(C)=O.CCP(CC)CC.[Au+]	Thioredoxin glutathione reductase (Schistosoma mansoni, UniProt Q962Y6)	glutathione reductase activity, inhibitor		10 min preincubation with NADPH, together with: 100 µM GSSG	IC50	5.4 nM
CC1=C(C(=O)NC(=O)c2cnccn2)C(c2ccccc2)NC(=S)N1 (centres unmarked)	Cholinesterase (BCHE, Equus caballus, UniProt P81908)				IC50	6750 ± 10 nM
N=C1Sc2ccccc2C2=NCCCN12	sfp (Bacillus subtilis, UniProt P39135)	phosphopantetheinylation, inhibitor, fluorescence polarization		45 min, pH 7.6, 10% DMSO, together with: VibB 10 µM and rhodamine-CoA 5 µM	IC50	1000 ± 1000 nM
CCCCCCCCCCCCC/C=C/[C@@H](O)[C@@H](N)COP(=O)(O)OCC[N+](C)(C)C	RYR1 (Oryctolagus cuniculus, UniProt P11716)	channel open probability, inhibitor, planar lipid bilayer		together with: calmodulin 100 nM, free Ca2+ 22 µM	IC50	700 ± 200 nM
CN[C@@](C)(C[18F])C(=O)O			mouse, muscle	1 h, tumour-bearing	tracer uptake	1.4 %ID/g
Nc1cccc(-c2cc3c(Oc4cccc(O)c4)ncnc3[nH]2)c1	GSK3 (Trypanosoma brucei, UniProt Q388M1)	enzyme activity, inhibitor		together with: GSM peptide and ATP	IC50	600 ± 100 nM
O=C1Nc2ccccc2/C1=C/c1cnc[nH]1	Putative glycogen synthase kinase (Leishmania major, UniProt Q4QE15, D105E)	enzyme activity, inhibitor		90 min, 30 °C, together with: ATP 2 µM	IC50	18000 nM
O=C(COc1ccc(I)cc1)N[C@H]1CCOC1=O	rhlR (Pseudomonas aeruginosa, UniProt P54292)	reporter gene, antagonist			IC50	17300 nM
C[C@@H]1C[C@H]2[C@@H]3CCC4=CC(=O)C=C[C@]4(C)[C@@]3(Cl)[C@@H](O)C[C@]2(C)[C@@]1(OC(=O)c1ccco1)C(=O)CCl	ABCC1 (Homo sapiens, UniProt P33527)	substrate efflux, inhibitor, flow cytometry	ABCC1-overexpressing SupT1-Vin cells	together with: BODIPY-FL-histamine 500 nM	IC50	3700 ± 1000 nM
C#C[C@]1(O)CC[C@H]2[C@@H]3CCC4=Cc5nc6nc7ccccc7n6cc5C[C@]4(C)[C@H]3CC[C@@]21C	ERRα (human)	reporter gene, antagonist, luciferase reporter qHTS			IC50	10600 nM
CCC(C)c1cccc(C(C)CC)c1O (centres unmarked)	Hcn1 (Mus musculus, UniProt O88704)	channel gating (V1/2 shift), inhibitor, two-electrode voltage clamp	Xenopus oocytes		IC50	~355000 nM and 355000 nM
O=c1[nH]ccc2nc(NC3CCCNC3)nc(Nc3ccc(S(=O)(=O)N4CCOCC4)cc3)c12 (centres unmarked)	ROP18 (Toxoplasma gondii, UniProt Q2PAY2)	enzyme activity, inhibitor			IC50	300 nM
O=C(O)C(=O)C=C(O)c1cn(Cc2ccc(F)cc2)c2cc(N3CCCC3)ccc2c1=O	Gag-Pol polyprotein, integrase (gag-pol, Human immunodeficiency virus 1, UniProt P12497)	concerted integration, inhibitor, measured: donor-donor products		2 h, 37 °C	IC50	347 ± 42 nM
CC[C@H](C)[C@H](NC(=O)[C@H](CO)NC(=O)[C@H](Cc1ccc(O)cc1)NC(=O)[C@H](CC(=O)O)NC(=O)[C@H](CO)NC(=O)[C@@H](NC(=O)[C@H](Cc1ccccc1)NC(=O)[C@@H](NC(=O)CNC(=O)[C@@H](N)CCC(=O)O)[C@@H](C)O)[C@@H](C)CC)C(=O)N[C@@H](C)C(=O)N[C@@H](CC(C)C)C(=O)N[C@@H](CC(=O)O)C(=O)N[C@@H](CCCCN)C(=O)N[C@H](C(=O)N[C@@H](CCCNC(=N)N)C(=O)N[C@@H](CCC(N)=O)C(=O)N[C@@H](CCC(N)=O)C(=O)N[C@@H](CCC(=O)O)C(=O)N[C@@H](Cc1ccccc1)C(=O)N[C@H](C(=O)N[C@@H](CC(N)=O)C(=O)N[C@@H](Cc1c[nH]c2ccccc12)C(=O)N[C@@H](CC(C)C)C(=O)N[C@@H](CC(C)C)C(=O)N[C@@H](C)C(=O)N[C@@H](CCC(N)=O)C(=O)N[C@@H](CCCCN)C(N)=O)C(C)C)[C@@H](C)CC	GIPR (Homo sapiens, UniProt P48546)	cAMP production, antagonist	BHK	3 h, 37 °C, together with: GIP 50 pM	IC50	16.2 nM
C[C@H]1C[C@H]2[C@@H]3CCC4=CC(=O)C=C[C@]4(C)[C@@]3(Cl)[C@@H](O)C[C@]2(C)[C@@]1(O)C(=O)CO	EGFR (Homo sapiens, UniProt P00533)	kinase activity, ADP luminescence		together with: 200 µM ATP	IC50	> 10000 nM
COc1cc2cc(Oc3ccc4ccc(=O)oc4c3)c(=O)oc2cc1OC	ACHE (Homo sapiens, UniProt P22303)	enzyme activity, inhibitor			IC50	> 500000 nM
CC12CCC(OC(=O)NCCCn3ccnc3)CC1CCC1C2CCC2(C)C(c3ccc(=O)oc3)CCC12O (centres unmarked)	Sodium/potassium-transporting ATPase subunit alpha-1, with beta-1 subunit (Atp1a1, Rattus norvegicus, UniProt P06685)	pump current, inhibitor, two-electrode voltage clamp	Xenopus oocytes expressing β1	-60 mV	IC50	329 nM

Excerpt of the above:
Structure (SMILES)	tested on	assay	system	conditions	measurement	value
N=C1Sc2ccccc2C2=NCCCN12	sfp (Bacillus subtilis, UniProt P39135)	phosphopantetheinylation, inhibitor, fluorescence polarization		45 min, pH 7.6, 10% DMSO, together with: VibB 10 µM and rhodamine-CoA 5 µM	IC50	1000 ± 1000 nM
